Experimental data gathered from unrelated publications.
Parts stem from different laboratories: compare values within a part only. Positions count from the first letter of the parent shown.

Set 1 — technique: universal PBM; molecule type: double-stranded DNA, one strand shown; medium: in vitro; tested at: not given; direction: higher = stronger binding
Target: Sal-like protein 4, full length isoform B (SALL4, Homo sapiens, UniProt Q9UJQ4-2, residues 1-616)
Notes: 8-mer, flanks averaged, mean of replicates
Target sequence (chain): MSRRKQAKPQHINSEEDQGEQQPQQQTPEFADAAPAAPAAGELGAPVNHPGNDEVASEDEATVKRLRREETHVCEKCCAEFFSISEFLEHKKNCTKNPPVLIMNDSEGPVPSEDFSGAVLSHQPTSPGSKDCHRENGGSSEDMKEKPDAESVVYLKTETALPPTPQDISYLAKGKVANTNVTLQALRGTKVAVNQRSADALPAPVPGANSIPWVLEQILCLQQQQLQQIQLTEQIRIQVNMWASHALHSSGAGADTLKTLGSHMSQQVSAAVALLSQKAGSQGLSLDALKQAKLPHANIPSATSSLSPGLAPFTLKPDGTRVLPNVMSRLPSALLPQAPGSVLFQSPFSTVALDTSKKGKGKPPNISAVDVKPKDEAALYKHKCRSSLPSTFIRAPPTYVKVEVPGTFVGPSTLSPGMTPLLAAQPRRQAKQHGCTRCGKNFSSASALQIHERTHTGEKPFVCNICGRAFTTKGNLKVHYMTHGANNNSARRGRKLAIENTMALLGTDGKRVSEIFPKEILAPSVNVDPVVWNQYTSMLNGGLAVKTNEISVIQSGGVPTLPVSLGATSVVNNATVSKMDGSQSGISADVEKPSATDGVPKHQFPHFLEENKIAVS
Sequence | E-score
CTAAGAGA | -0.0387
ATACGATC | 0.0326
CACTTGTA | 0.154
CGAGGTAC | -0.131

Set 2 — technique: DHFR PCA, deep sequencing; medium: yeast; added: (+)-ABA 710 µM; reference: wild-type fitted maximum; direction: higher = stronger binding
Target: ABI1, truncated, D143A, DHFR fusion (Arabidopsis thaliana)
Notes: methotrexate growth selection, single substitutions
Starting sequence: PYL1, truncated, DHFR fusion (Arabidopsis thaliana); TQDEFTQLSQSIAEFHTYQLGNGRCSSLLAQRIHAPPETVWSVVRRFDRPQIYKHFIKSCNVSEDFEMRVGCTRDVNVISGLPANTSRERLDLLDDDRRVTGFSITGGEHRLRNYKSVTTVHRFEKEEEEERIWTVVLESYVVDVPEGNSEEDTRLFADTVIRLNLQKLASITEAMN; partner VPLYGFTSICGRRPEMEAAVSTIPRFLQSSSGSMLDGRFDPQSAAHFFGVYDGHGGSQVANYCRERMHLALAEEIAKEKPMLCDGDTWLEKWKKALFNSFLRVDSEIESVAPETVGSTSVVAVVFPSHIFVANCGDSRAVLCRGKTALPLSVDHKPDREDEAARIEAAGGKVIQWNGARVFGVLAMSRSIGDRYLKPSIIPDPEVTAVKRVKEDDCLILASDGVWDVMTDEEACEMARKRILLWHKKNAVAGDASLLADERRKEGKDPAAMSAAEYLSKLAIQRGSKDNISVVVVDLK
Change | relative binding score
L169F | 10.6%
P146G | 86.7%
T160D | -7.8%

Set 3 — technique: protein binding microarray; molecule type: double-stranded DNA, one strand shown; medium: in vitro; tested at: not given; reference: not given; direction: higher = stronger binding
Target: Histone acetyltransferase KAT6A, both winged helices, GST fusion (KAT6A, Homo sapiens, UniProt Q92794, residues 1-181)
Notes: 8-mer, flanks averaged, mean of 2 arrays, mostly near background
Residues (chain): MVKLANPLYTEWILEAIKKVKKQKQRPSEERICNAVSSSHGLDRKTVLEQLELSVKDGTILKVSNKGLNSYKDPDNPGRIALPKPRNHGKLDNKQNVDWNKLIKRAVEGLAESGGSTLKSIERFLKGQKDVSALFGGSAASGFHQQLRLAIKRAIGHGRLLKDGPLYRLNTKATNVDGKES
Sequence | E-score
CAGGGATC | -0.215
ACAGATTA | -0.103
AATAAGGG | -0.307
CTCGCAGA | -0.0268

Further values, each from its own experiment
Substance | target | assay | system | conditions | how to read | measurement | value
PhoQ, residues 284 288 289 292 302 303 SSCCRF | PhoP, residues 12 14 15 18 19 FWNTL (Escherichia coli, UniProt P23836) | Sort-seq, item: YFP reporter | E. coli | PhoQ-PhoP variant library, added: 10 µM Mg2+ | reference: high Mg2+ state, higher = stronger signaling | fold induction | 12.5

For quick reference, copied from above (set 1):
Sequence | E-score
CACTTGTA | 0.154
